# Results of several laboratories.
# Numbered parts are unrelated; each lists some results of a single study.

# Sample 1
# Target: Phosphate system positive regulatory protein PHO4, full length, GST-tagged (PHO4, Saccharomyces cerevisiae, UniProt P07270, residues 1-312)
# Technique: competition protein-binding microarray
# Molecule type: double-stranded DNA, one strand shown
# Medium: in vitro
# Tested at: 2 µM
# Notes: whole 60-bp probe, lowest competitor level
# With: Cbf1 competitor, 0.05 µM
# Reading: higher = stronger binding
# All sequences stand within: … GTCTTGATTCGCTTGACGCTGCTG
# Residues (chain): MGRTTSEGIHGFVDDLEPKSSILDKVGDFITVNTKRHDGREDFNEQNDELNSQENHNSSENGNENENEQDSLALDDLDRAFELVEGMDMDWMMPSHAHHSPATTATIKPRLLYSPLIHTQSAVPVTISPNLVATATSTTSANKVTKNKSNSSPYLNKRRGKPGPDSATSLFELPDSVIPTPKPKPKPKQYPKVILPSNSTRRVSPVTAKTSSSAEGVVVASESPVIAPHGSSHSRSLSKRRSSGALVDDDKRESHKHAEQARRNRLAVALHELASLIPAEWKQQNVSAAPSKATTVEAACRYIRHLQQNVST
Strand,fluorescence intensity [a.u.]
CTAACGAAGGTTTTTCACGTGAATTACAAGCCAAGT,9490
CTTGGAGCAAGCCTACACGTGTGAATATTCTACGGC,14900
AAAGCGGTAATTTTTCACGTGCTCTCACATATCTAT,14900
TTTTCAAGGTCTAGAAGCGTGCCGATATCATTCTGA,7550
AAAGCGGTAATTTGTCACATAACTTCACATATCTAT,3890
AGTAGTTTAAAATTTCACGTGTACTTTCCCTGTTTT,12400
CAGACGGGAAGCAGGCGCGTGCTGGCGGTGACCTGG,10200
TGATGAGGACACCAACACGTGCAAACATGGTAGTGC,15600
TGCGCAACAACTTTTCACGTGTGCTTATGTCTAGAA,13700
CTTTCCCGATCTTGCAAAGTGGGTGTAGCACATTTG,4720
TGCGCAACAACTTGAGTGGTGGGTGTATGTCTAGAA,4610
ACCCCCGCCCTCAAAGCCGTGACTCGATAACGACTT,3850
CGTCCTAGTGATTTTCACGTGGATTCCATGAGGAAG,12100
ATACATCCCCAAGTTCACCTGACTGGAACTAGTGGA,3280
AGACCCTTGTCGCGTCAGGTGATTGTTGTGGTACTT,3810
CGCGCTGCTCTAAGCACCGTGGGTAGGCCATGAAAT,8270
CGGGGTTAAGTTTTTCACGTGACTTGCTTGCAGCAG,9810
AAAGCGGTAATTTGCCTCGTGGGTGCAGATATCTAT,12400
ATAACGGTACTTATTTGCATGACGCTCATCAACCCT,3800
AAAGCGGTAATTTGCAGAGTGGGTGCAGATATCTAT,4260
GAAGAGGACGAAGACGACGTGGTGAAAGAAGACGAA,4940
ACCTTGCGGCGATATCACAATTTTCCTTGTACACTC,3370
TACGACATTGGCAATCACGTGTTGGGCTGCTCCTCC,13700
TTGATATGTTTATGTAATAATATTTACCACCGCCAC,4200
CCAATCTGGGCAAAGCGCGTGAAGATCAAGACTCGC,4500

# Sample 2
# Target: RNA binding protein fox-1 homolog 2, RRM domain, GST-SBP tag (RBFOX2, Homo sapiens, UniProt O43251-10, residues 100-194)
# Technique: RNA Bind-n-Seq
# Molecule type: RNA
# Medium: in vitro
# Tested at: 365 nM
# Notes: natural RNA segment, single round, ends assumed
# Baseline: no-protein control
# Reading: higher = stronger binding
# All sequences stand within: GGGAGUUCUACAGUCCGACGAUC … UGGAAUUCUCGGGUGCCAA
# Residues (chain): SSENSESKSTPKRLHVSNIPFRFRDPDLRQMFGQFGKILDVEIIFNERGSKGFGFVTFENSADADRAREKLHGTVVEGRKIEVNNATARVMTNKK
Strand,RBNS enrichment (R)
CUUUACAAGCUGACUUGGAAUUGUGUGCUGCUUGCUGUUAGCUAGGGGAAAGGCCCUGCCAAUGUUUAACUUUUAAAAGCAUCUUAUCUAAAAGAAAGGCUAUCCAGUAG,1.99
UAGAGCUUAGAUUUCCCUAUUGUGACAGAGCCAUGGUGUGUUUGUAAUAAUAAAACCAAAGAAACAUACGUCCUGUGUGCAUGGUACAGUGUGCUGACCUGAGGCCGUCA,0.843
AGAGCUCCACAUACAGAAACACAUUAUUUUGCAGAAAUAGGUGUUUUUAAGAAGUUUUACUACAGGAAUGUCUACUUUUGUAAGUGACAGGUGUUAAAGGCCCAGGUGUG,0.748
UAGCACUGAGCGGUAAAGGGUCUCUUCAUCUCUGGACAUGAUGGGUGUUGUGUAUGACUCUGUUGCCUUUUUGUCUGGAAACUAAAGGCUGGGGGUGGCAAAAUCAAUGA,2.86
GGGAGGACAGCCACCAACUAGCUCACUCAGCAUUUUAAACUUGAGUUCCUUUGAUAUCUGAGUUUAUUCAACAGUUCUUGGGUUUAGCAAACCCAAAAUAUUUUAUUAAG,0.628
GAUGCUGGCACGAGGUUUUUGUCCACUUUUUUCAUAUAUCUGUGUAUAAAAAAAUUGUUGUUUACUAUGGAAUUAGUAUUACAUUUUGAGGUAAACAAAAGAAUUUGUAU,0.761
AGGAGUUGAAUUCUUUGGCAAGGUUGGAUUCUGAGGUCCUUAUUAUGUUAAUGAUGGUGCAAUACUCUCACCUGCAGUAGAACUGAGUUCUGCUGCAGCUUGUGUAAAAG,0.544
AUGGGCUCGCAAGGAUGGGUGCCGCCGUGGGAGCCCUGCCUCUGGUGCUGGCAAGGGAUUGGGUUUGUGUGGGUGUCUCUAGCCUGCAGAGUGCAGUGAGUGAGAGUCCU,0.959
AGCCUUGGACUACACACAUUUCAAACAAAACCAAAUGCUGUCGUCGACAAGCCAGCACAGGCGAAGUGAUGGUUCCCACAGCACCCCCAAUAAAAACUGGGAUUUUGAAU,0.33
UGGCCAUAAAUACUCAAUCUACCAGUUGGAAAGGGUAUCUAUUUCAAGAUGGGGUGGCGUUUUUCCCAUACUCACUCCUUCUUGAUUCUUCACUGUGGUCUUUUCCAGAU,0.283
GGACCCCGUCACUGCGACGUUGACACUCCUCUCCCUUCCCUUCCUCCCCAACUCCCCAAACACUGUGGAAGGGGAGAAGGAAGUGAUCCACAGCAUUCAGGCCACUUGGG,1.35
CCUCUAGUCUACCACCAGUGUUAACGCACUCUAAAGUUGUAACCAAAAUAAAUGUCUUACAUUACAAGACGUCUGUUUUGUGUUUCCUUUUGUGUGUUUGGGCUUUUUAU,0.307

# Sample 3
# Target: RING finger protein unkempt homolog, zinc fingers 1-6, GST-SBP tag (UNK, Homo sapiens, UniProt Q9C0B0, residues 30-357)
# UniProt Q9C0B0, sequence (30-357, looked up): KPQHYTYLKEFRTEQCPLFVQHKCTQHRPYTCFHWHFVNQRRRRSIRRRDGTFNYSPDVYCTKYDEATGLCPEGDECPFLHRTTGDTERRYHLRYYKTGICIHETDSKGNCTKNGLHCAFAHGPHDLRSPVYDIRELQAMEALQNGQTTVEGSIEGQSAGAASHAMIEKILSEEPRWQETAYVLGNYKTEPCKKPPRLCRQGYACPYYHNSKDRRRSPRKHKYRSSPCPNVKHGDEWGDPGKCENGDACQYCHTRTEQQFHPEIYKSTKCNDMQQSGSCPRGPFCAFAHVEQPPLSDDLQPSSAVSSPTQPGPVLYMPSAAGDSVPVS
# Technique: RNA Bind-n-Seq
# Molecule type: RNA
# Medium: in vitro
# Tested at: not given
# Notes: RNA with constant flanks, human-mouse chimeric sites, ends assumed
# Baseline: input RNA pool
# Reading: higher = stronger binding
# All sequences stand within: GGGAGUUCUACAGUCCGACGAUC … CAACAGAGGAUUGAGCAUCA
Strand,bound/input enrichment [ratio]
GGAUUCCGCUUCCGGUUCCGUUGGGCUCGGUUCUCUCCUGAGCUACGUGUCUCUACGUUUUAGGUGUGCCAUCCAACAAACAUGGAUCAGGUAAUGCAGUUUGUGGAGCCCAGCCGGCAG,0.0766
GCCACCAGAUCCCAGAAACAUGACCCUUGCUGCCUACAAAGAGAAGAUGAAGGAACUCCCGCUGGUGUCCUUGUUCUGCUCUUGCUUCCUGGCCGAUCCCCUGAAUAAGUCGUCCUACAA,0.246
CACAGAGGAGACCUCCUGUUCCUCACGAAUUUCCGGGAGGACCCCAUCAGAGCUGGUGAAAUAGUUGUUUUUAAGGUUGAAGGAAGAGACAUUCCGAUAGUUCACAGAGUAAUCAAAGUU,4.84
GAAUCCUACUCAGGCGGAUUUUGCAACACCAAGCUCACAGCAGCAGCUCCAUAGUCACAGUUAGGUAGUUUUGGGGCUCUGUGGCCAGGGUUUUAUUCACAUGCAGGUUUGGAAAAUGUA,1.78
CAGCUGCGAGGCCGCGGUUUCCCCCUGGGCCUCCCCAGCAGCAGCCAUGGGCAUCAAAUUUUUAGAAGUUAUCAAACCAUUCUGUGCAGUUCUACCAGAAAUUCAGAAACCGGAAAGGAA,0.841
AAAGUGAUGACUAUGUUUGUCCAACGACAGGUAUUUUCGGAGAGCAAGGAUGAGAUUGCGUUAGUCCUCUAUGGCACAGAUGGCACUGAUAAUGCCCUUGCUGGCAAGGAUCAGUAUCAG,0.13
UGACAAGGGCACUGCAGAGCCAUGCCUUUCCUUGACAUCCAGAAAAGGUUCGGCCUUAGCCUGGACCGGCACUUUAUGUUCCUAAGCGCAGAACAGCCCUAUAAGAACGCCGCUCGGUGC,0.0601
UGACAAGGGCACUGCAGAGCCAUGCCUUUCCUUGACAUACAGAAAAAGUUCGGCCUUAGCCUGGACCGGCACUUUAUGUUCCUAAGCGCAGAACAGCCCUAUAAGAACGCCGCUCGGUGC,0.0905
GGGGAGAAACCUUACGAGUGUGUGCAGUGUGGGAAAUCCUACAGUCAGAGCUCAAACCUCUUCAGACAUCAGAGAAGACACAAUGCAGAAAAACUUCUGAAUGUUGUGAAGGUUUAAGAA,0.229
GUAGCUGGGACUACAGAAGAAUGCUGAAUUUCAGUCACUUGCUGAUGACUUCUGAUGUCCCAGCAAAUGUUGGCAUUCACUGCAAUAGAGAAGAUACUUCUGAGGACCCACGUCUAAGGU,0.254
UUAAUCCCCUUUACUGCUCCACCACUGCUCAUGGUAAUAACAAAGUCUUAUAUCCCCGUCCUAGCUUUCACUCAGAUGGCUUAUGGAGCCGGUUUCCUAUCUUUCUUGGGAGGGAUCAGA,0.22

# Sample 4
# Target: PABPC1L2, full length, GST fusion (mouse, UniProt A0ABA7IW68)
# Technique: RNAcompete
# Molecule type: RNA
# Medium: in vitro
# Tested at: 20 nM
# Notes: 7-mer, probes averaged, single round
# Baseline: mean of 7-mers
# Reading: higher = stronger binding
# Target sequence (chain): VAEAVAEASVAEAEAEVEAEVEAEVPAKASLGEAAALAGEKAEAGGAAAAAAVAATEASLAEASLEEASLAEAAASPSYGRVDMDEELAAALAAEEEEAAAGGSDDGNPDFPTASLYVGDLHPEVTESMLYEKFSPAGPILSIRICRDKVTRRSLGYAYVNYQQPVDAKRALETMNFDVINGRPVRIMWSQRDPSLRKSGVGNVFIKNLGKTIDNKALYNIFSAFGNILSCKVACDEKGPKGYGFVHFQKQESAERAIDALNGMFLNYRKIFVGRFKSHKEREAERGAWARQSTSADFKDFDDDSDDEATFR
Strand,7-mer Z-score
UCCACUG,-0.258
AAUUUUC,-0.22
UAUACCC,-0.403
UUACCAA,0.0877
UGCCACG,-0.186
AAGAAGG,0.693
UGUCCUC,-0.362
CACAGAG,-0.0047
ACCGCAC,-0.162
AUUGAUA,0.00617
CUACGCC,-0.364

# Single results of other studies
# Read-out: peptide binding
# Molecule type: peptide
# Reading: direction not given
Molecule,target or system,assay,system,conditions,enrichment score
GSPLAKAFTSTGL,human cyclin A2,competitive growth sequencing,"Saccharomyces cerevisiae, cyclin A2-Cln2 fusion strain",mutational scanning library 1,0.253
ASPLKKLFTSTGL,Saccharomyces cerevisiae,yeast competitive growth sequencing,cyclin F-Cln2 fusion,library 1,-0.425

# A few entries again (sample 4):
Strand,7-mer Z-score
UAUACCC,-0.403
UUACCAA,0.0877
UGCCACG,-0.186
AAGAAGG,0.693
UGUCCUC,-0.362
CACAGAG,-0.0047
